# Assay results from different studies.
# Every numbered part comes from another study and shows a few of its results, in no order.

# Series 1
# Target: RNA binding protein fox-1 homolog 2, RRM domain, GST-SBP tag (RBFOX2, Homo sapiens, UniProt O43251-10, residues 100-194)
# Technique: RNA Bind-n-Seq
# Form: RNA
# Sample: in vitro
# Tested at: 365 nM
# Setting: natural RNA segment, single round, ends assumed
# Baseline: no-protein control
# Direction: higher = stronger binding
# Residues (chain): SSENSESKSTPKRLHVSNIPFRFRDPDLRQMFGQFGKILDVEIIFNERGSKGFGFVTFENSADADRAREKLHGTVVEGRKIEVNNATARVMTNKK
Strand,RBNS enrichment (R)
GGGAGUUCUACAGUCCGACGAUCACCACUCCAGUGCAUUUCCGCCUGGCUCCUAGAAGCCCCAUUCAAUAUCACUACUCUUUAACGAGUGCCAAAUCUUUUCCCACUUUUGCUCUUCCCCAAGGAACUGCUCCUGGAAUUCUCGGGUGCCAA,0.45
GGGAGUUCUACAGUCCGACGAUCUAAUACAUCAUGGGAUAUAUAUAAAGCAACUUAAUUCUUGUGGUGUAGUCUUAAUAGUUUUGAAUGUUGACUGAAUGUCUAUAAAAUUGUGAGUUUGUCUUUGUUACAUUUGGAAUUCUCGGGUGCCAA,2.17
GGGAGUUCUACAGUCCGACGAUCAUGCACUGCUUCCUGUAGUCUUUUAGAAAGUAACUCCAGGACAUCGAAGUGCCCAGAUUUGACUCCUAAGUUCUAGGAGACUGUAGCGCAGGGUCUGUCAACCUUAGCACUGGAAUUCUCGGGUGCCAA,0.297
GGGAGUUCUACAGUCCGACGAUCAAAUACAAACCAACAGAAACUUGUUAUGCACUCAUCAAAAUGUACUAAUGGGUACUCUGAACUCAUUAACAUUGACAUCUGCAACAGGAGGCAACAGGGAAAAAAUCUCAUGGAAUUCUCGGGUGCCAA,0.34
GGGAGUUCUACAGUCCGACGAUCUCUGGUAUCUAAAUACUGAGAAGUUCAUUUAUAAUUCAGCCUUGACUUGAAAACAUAGAUAGUUUAAUCUUGACUUGAAAAACACAAAAAUAAAUUCAGAAAAUGCUUUUUGGAAUUCUCGGGUGCCAA,0.983
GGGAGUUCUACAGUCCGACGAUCCUACCUGCCCCAACUCUCAAAGACCUUGAUCCCUUCUUUUCCUUCCAUCCCACCUUUUCCUUCCACUGCCCAAUCACAGCCUCUAGCCUUUAUUUGACCAGUUAAAAUGGUGGAAUUCUCGGGUGCCAA,0.757
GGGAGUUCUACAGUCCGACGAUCCAGAAGGGUGCCACAUCAGUCCCCUCCCCAACCUCAGUGACUGACAGAGGAUCCGGAUCUCAGAGCCUGAGACCAGGUUUAUUGGGGCCUGGCCUGUCCUCUAAGUCAAGUGGAAUUCUCGGGUGCCAA,0.217
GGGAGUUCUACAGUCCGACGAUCGGACUGCUGAGCUAGUCCAGGGGUAGCCGGUCCCCUCAUGCAUCUGCUGCCUUAGCUUCUAGAACGGAGCAAGCUUUUACGUACCUAGGUGACAUGUAGAAAAAUUUACAUGGAAUUCUCGGGUGCCAA,0.25
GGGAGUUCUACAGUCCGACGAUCCACUCUUCAAGCGCUUGCUCUUACAGGCAGACAUCGUUUUCUCUCUAAAUUCAGUAGCAGUUUCAUCGACAGUGCCAUUGAACUAUGGGAACAUUUAUGAUUUUCUUUCAUGGAAUUCUCGGGUGCCAA,0.224
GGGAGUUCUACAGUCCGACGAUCGGGCCAGGUUCCCCAGACAGCAGGAAUUGCCCCUGUUCAGAGCAGCCGGAGUUUGCUGGACCACAAGGAAGAAGAGAAGAGACUUGCAGUGAACUGUUUUUGUGCCAAGAUGGAAUUCUCGGGUGCCAA,0.673

# Series 2
# Target: Ras GTPase-activating protein-binding protein 1, full length (G3BP1, Homo sapiens, UniProt Q13283)
# Sequence of UniProt Q13283 (whole entry, looked up): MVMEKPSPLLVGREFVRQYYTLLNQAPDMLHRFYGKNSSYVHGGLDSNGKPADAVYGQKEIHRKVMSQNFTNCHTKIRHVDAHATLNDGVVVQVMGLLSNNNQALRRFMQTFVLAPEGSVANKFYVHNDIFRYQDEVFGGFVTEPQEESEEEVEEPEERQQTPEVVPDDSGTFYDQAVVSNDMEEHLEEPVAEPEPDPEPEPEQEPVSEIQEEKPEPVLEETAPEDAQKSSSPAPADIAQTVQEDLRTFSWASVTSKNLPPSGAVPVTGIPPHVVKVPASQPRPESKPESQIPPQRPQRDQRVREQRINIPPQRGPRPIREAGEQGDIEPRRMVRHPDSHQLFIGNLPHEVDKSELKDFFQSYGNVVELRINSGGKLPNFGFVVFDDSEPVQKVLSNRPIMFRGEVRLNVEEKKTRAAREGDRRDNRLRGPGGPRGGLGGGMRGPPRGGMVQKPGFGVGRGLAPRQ
# Technique: RNA Bind-n-Seq
# Form: RNA
# Sample: in vitro
# Tested at: 200 nM
# Setting: whole 134-nt RNA, ends assumed
# Together with: 150 mM LiCl
# Baseline: input library
# Direction: higher = stronger binding
# Each molecule: 7-deaza-guanosine replaces G
Strand,log2 enrichment
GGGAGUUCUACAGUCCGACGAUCUGGGAGGUGGAUUUUGUUUAUUUUUUUAGCUCAUUUCCAGGGGUGGGAAUUUUUGUUUAAUAUGUGUCAUGAAUAAAGUUGUUUUUGAAAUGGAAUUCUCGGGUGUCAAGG,-0.67
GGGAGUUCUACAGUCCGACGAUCCAAGUCCUGUGCUACACAUCGUAUGUACCGAAUCGGUUUUUUUGGUUUGGUUUGGAAAGUAUUAUGUUACGCCGUUCGGAUCUGCACUUCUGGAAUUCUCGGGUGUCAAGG,-1.46
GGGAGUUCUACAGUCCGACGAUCCACAGACAACACGCACCCACACAGACACAGAGGGAAGGGGUUGGGAUUGGGACAGGGUGCACAGCAGGGCGGGGUAGGACCCCAGCCCCUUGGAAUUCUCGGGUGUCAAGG,0.551
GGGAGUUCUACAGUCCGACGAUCAGUCCUGUGCUACACAUCGUAUGUACCGAAUCGGGGUUUUGGGUUUUGGUUUUGGGGAAAGUAUUAUGUUACGCCGUUCGGAUCUGCACUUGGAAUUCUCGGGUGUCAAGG,-0.836
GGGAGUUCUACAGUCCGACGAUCCAAGUCCUGUGCUACACAUCGUAUGUACCGAAUCGGUUUGGUUUUUGGAAAAAGGAAAGUAUUAUGUUACGCCGUUCGGAUCUGCACUUCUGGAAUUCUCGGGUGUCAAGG,-0.446
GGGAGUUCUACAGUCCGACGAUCCCUCAAGUCCUGUGCUACACAUCGUAUGUACCGAAUCGGUUGGUUGGUUGGGGAAAGUAUUAUGUUACGCCGUUCGGAUCUGCACUUCCAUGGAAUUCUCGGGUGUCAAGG,0.46
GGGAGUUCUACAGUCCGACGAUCAAGUCCUGUGCUACACAUCGUAUGUACCGAAUCGGGCCCGGGGCCCGGGGCCCGGGAAAGUAUUAUGUUACGCCGUUCGGAUCUGCACUUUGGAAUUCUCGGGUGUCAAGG,-1.27
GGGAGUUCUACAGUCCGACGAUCUUCCAACAGUUAUGGGAUCCCAGAACCUGCUCAUGCAUACGCUCAACCUCAGACCACAACUCCUCUACCUGCAGUUUCCGGUUCUCCUGGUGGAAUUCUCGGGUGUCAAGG,1.33
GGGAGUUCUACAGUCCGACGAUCCACAGACAACACGCACCCACGCAGACACAGAGGGAAGGGGUUGGGAUGGGGACAGGGUGCACAGCAGGGCGGGGUAGGACCCCAGCCCCUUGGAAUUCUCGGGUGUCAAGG,0.353
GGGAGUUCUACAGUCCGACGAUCCUCAAGUCCUGUGCUACACAUCGUAUGUACCGAAUCGGAGGAAAGGUUUUUGGAAAGUAUUAUGUUACGCCGUUCGGAUCUGCACUUCCAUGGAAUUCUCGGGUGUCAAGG,-0.497

# Series 3
# Target: Prothrombin, mature alpha-thrombin (F2, Homo sapiens, UniProt P00734)
# Technique: aptamer microarray, sandwich
# Form: DNA with 2'F-ANA
# Sample: in vitro
# Tested at: 200 nM
# Setting: whole 15-mer aptamer, many near background
# Together with: Cy3 exosite-II aptamer, 400 nM
# Direction: higher = stronger binding
# Strand: GGTTGGTGTGGTTGG
Modification,mean fluorescence intensity
2'F-ANA at 1 3 4 5 9 11 12 13 14,47.5 a.u.
2'F-ANA at 1 2 5 6 7 8 10 14 15,55.2 a.u.
2'F-ANA at 6 10 11 13 14,134 a.u.
2'F-ANA at 1 4 6 7 11 14 15,51.1 a.u.
2'F-ANA at 1 4 5 6 7 8 10 13 14,51.6 a.u.
2'F-ANA at 2 3 4 6 7 8 11 12 13 14,288 a.u.
2'F-ANA at 2 4 7 10 11 14,70.4 a.u.
2'F-ANA at 1 4 6 7 8 10 11 13 15,52.8 a.u.
2'F-ANA at 3 8 10 11 12 14 15,353 a.u.
2'F-ANA at 2 3 6 10 11 12 13 14 15,240 a.u.

# Other studies, line by line
Substance,target,test,test system,conditions,how to read,measurement,value
"PhoQ, residues 284 288 289 292 302 303 TNASYF","PhoP, residues 12 14 15 18 19 HEGLL (Escherichia coli, UniProt P23836)","Sort-seq, refers to: YFP reporter",E. coli,"PhoQ-PhoP variant library, together with: 10 µM Mg2+","baseline: high Mg2+ state, higher = stronger signaling",fold induction,1.45
